Measured values gathered from unrelated publications.
A part holds a random share of what one study measured. Changes are numbered by the printed parent chain.

Study 1 — technique: RNA Bind-n-Seq; molecule type: RNA; sample: in vitro; tested at: 365 nM; reference: no-protein control; direction: higher = stronger binding
Target: RNA binding protein fox-1 homolog 2, RRM domain, GST-SBP tag (RBFOX2, Homo sapiens, UniProt O43251-10, residues 100-194)
Setting: natural RNA segment, single round, ends assumed
Constant ends, left off below: GGGAGUUCUACAGUCCGACGAUC … UGGAAUUCUCGGGUGCCAA
Construct (chain): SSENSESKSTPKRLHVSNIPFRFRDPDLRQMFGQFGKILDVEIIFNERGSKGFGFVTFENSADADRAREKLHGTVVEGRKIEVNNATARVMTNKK
Sequence	RBNS enrichment (R)
UGCUGUGUUUUCUUCAGAGCAAGAAGGUUAUAUUUUUUAAAAUUUACUUAGUAAUGCACAUUCAAAACACACAUCAAGUCUUCAGGAUAAAGUUCAAAACCGCUGUCAUG	0.353
GUGUCCUUCAAACAUAUCCUCCUGCAACUUCUCAAACUGUACUAAAUUGAUAUUUCUUGAAGUCUAACUCUGUGCUAACAGAUCUCCAUUUUAAAUAGAAUACGGUUUUA	0.606
GUAUGAUCUAUUUUAUGUGCUCUAUGUUCCCAUUUGUUUGUUUGGUCUGGACAGUGGUUCUGGAAUGAAUUCUAUCUAGUAAAUUAGUAAAUGUGCUGUUUUGUAUAAAG	1.12
CAAAGAAUUUACUUACUUUAUGUUAAUUACGGGCAUGAAGCAAAAGGUUUUCUUUAAAAAAAAAAAAAAGUGCAGUGAUGUAGGGCUGUGGUUAGUUAACCGUACUGAGU	0.508
GAUGUUCUAAACAACCAAACUAAAGCUGUGUACAGAUUGGGUUUGGAGCGGUGGGGACGUCAGCAGGAAACGCCAGUGCUUUGCUGCCUGAUUGACAGGAAUUUGCUGUC	0.274
GCUUGAGCUACAAUCAGGAGGGAAAUUGGAAGGAUUAGCAGCUUUUAAAAAUGUUUAAAUAUUUUGCUUUGCUAAUGUGCUGAUCCGCACUAACUCAUCUUUGCAAAAGG	0.46
GAUUUUAAAUGUGUCUAAGGAGAAAACAGAGUUGAAUUAUGGCGUUAAAAUAAAAUUUACUACCAAAAUAUCAAGACCUCUGUCCUCACGGUUAUAUAGAAGCGCUGGUC	0.286
CCCCAAACCCCUGGGCAUUGUUGUCUGCUCAAGAGAUUCUACUGGAAGCAUGAUGACCCACCUGUCUGGGAAGAGAAAACCUCAAGAAGGCAAAGUGCAGUGCGUGUUUG	4.08

Study 2 — target: CCNB2, cyclin fold, Cln2 fusion (human); technique: yeast growth competition, sequencing; sample: yeast; setting: weak parent motif; reference: not given; direction: higher = stronger binding
Starting sequence: SAMHD1 docking peptide (human); ASKSRVQLFKDDP; partner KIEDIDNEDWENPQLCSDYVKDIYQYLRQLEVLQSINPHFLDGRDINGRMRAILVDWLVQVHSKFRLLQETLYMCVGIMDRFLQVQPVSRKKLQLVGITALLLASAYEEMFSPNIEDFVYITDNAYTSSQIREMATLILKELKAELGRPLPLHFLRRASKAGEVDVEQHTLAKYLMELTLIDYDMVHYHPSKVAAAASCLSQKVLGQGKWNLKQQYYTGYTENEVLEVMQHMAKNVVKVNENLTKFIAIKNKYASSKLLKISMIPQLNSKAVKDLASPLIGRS
Substitution	normalised enrichment score
AQKSRVQLFKDDP [S2Q]	0.129
ASKSRVQLWKDDP [F9W]	0.48
ASKSRVQLFKDCP [D12C]	0.101
ASKSRVQLGKDDP [F9G]	-0.00413
ASKSRVQLSKDDP [F9S]	0.363
ASNSRVQLFKDDP [K3N]	-0.102
ASKSRVQVFKDDP [L8V]	0.084
ASKSRVQLFKWDP [D11W]	-0.0308
ASKRRVQLFKDDP [S4R]	0.301
ASKSRHQLFKDDP [V6H]	-0.311
ASKFRVQLFKDDP [S4F]	0.79
ASKSRVQLFKDQP [D12Q]	-0.138
ASKSRVQLFGDDP [K10G]	-0.038
ASKSRNQLFKDDP [V6N]	-0.012
ASKSRVQLMKDDP [F9M]	0.52
ASQSRVQLFKDDP [K3Q]	-0.0743
ASKGRVQLFKDDP [S4G]	0.241
ASKSRKQLFKDDP [V6K]	0.539
ASKSRVQSFKDDP [L8S]	0.17
ASKTRVQLFKDDP [S4T]	0.39
ASKSRQQLFKDDP [V6Q]	-0.485
ASKSRVQLFKDGP [D12G]	0.22
ASKSRVILFKDDP [Q7I]	0.122
ASKSNVQLFKDDP [R5N]	-0.369
ASKSRIQLFKDDP [V6I]	-0.215

Study 3 — target: JUND, bZIP domain (human); technique: DHFR protein complementation; sample: yeast; reference: wild-type JUN-FOS pair; direction: higher = stronger binding
Setting: single substitutions, most at no-binding floor
Starting sequence: JUN, bZIP domain (human); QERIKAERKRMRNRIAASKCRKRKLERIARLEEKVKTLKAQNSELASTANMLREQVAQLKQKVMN; partner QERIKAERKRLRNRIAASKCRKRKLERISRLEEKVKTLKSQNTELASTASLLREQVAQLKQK
Substitution	binding fitness
K39N	-0.817 natural log
S47V	-0.504 natural log
R30A	-0.348 natural log
A40D	-0.726 natural log
K39R	-0.628 natural log
K34A	-0.517 natural log
M51W	-0.961 natural log
A46W	-0.977 natural log
S47K	-0.312 natural log
R53Q	-1.03 natural log
E44Q	-0.754 natural log
E33C	-1.1 natural log
E44C	-1.16 natural log
Q58T	-0.506 natural log
A49E	-1.12 natural log

Study 4 — technique: DHFR PCA, deep sequencing; sample: yeast; with: (+)-ABA 710 µM; reference: wild-type fitted maximum; direction: higher = stronger binding
Target: ABI1, truncated, D143A, DHFR fusion (Arabidopsis thaliana)
Setting: methotrexate growth selection, single substitutions
Starting sequence: PYL1, truncated, DHFR fusion (Arabidopsis thaliana); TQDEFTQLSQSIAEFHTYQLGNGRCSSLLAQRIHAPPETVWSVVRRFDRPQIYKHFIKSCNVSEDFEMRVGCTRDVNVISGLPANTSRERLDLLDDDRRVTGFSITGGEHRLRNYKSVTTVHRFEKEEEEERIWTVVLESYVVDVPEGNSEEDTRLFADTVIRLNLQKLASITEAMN; partner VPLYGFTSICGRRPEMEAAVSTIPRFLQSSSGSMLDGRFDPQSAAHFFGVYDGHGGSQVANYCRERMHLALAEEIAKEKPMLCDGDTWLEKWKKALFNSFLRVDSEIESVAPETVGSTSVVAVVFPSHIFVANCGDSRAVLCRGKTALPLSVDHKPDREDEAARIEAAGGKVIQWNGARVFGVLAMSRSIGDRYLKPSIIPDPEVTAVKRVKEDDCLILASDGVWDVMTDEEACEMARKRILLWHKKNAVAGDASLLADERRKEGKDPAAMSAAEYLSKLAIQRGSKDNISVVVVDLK
Substitution	relative binding score
V136L	102%
G148I	69.4%
D144N	95%
I105S	100%
T160K	94.6%
E128P	114%
E147W	91.9%
V70G	81.2%
L93A	99.9%
T101P	-2.98%
E127Y	108%
Y18V	97.4%
E129A	112%
C60M	73.9%
R69L	96.5%
I33E	-15.8%
A170C	102%
I12W	80.1%
D95K	83.6%
E131I	107%
I105W	-12.1%
P36K	102%
N177T	101%
T73L	97%
R32A	94.9%

Excerpt of the above (study 4):
Substitution	relative binding score
E128P	114%
E147W	91.9%
V70G	81.2%
L93A	99.9%
T101P	-2.98%
E127Y	108%
Y18V	97.4%
E129A	112%
C60M	73.9%
